Experimental data collected from several papers.
A part holds a random share of what one study measured. “And” joins repeats or separate records; there may be more than shown.
Sequence of UniProt Q06187 (whole entry, looked up): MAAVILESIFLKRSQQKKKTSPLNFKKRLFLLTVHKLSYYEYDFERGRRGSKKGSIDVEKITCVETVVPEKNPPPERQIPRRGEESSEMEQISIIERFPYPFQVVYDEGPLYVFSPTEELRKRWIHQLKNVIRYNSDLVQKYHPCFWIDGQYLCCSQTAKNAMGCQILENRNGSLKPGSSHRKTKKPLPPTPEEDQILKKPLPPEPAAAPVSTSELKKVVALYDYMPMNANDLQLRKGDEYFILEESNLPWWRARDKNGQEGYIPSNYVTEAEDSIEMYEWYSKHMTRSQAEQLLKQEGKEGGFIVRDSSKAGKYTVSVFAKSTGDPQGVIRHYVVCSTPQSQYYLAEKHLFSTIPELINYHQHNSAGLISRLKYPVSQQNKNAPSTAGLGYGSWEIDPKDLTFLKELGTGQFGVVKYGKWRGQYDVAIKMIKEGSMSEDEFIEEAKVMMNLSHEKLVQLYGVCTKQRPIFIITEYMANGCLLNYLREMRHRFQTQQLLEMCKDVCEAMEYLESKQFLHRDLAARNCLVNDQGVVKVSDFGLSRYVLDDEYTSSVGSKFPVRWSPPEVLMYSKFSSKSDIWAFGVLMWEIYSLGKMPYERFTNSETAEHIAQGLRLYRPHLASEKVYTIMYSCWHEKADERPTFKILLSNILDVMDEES
Sequence of UniProt Q08881 (whole entry, looked up): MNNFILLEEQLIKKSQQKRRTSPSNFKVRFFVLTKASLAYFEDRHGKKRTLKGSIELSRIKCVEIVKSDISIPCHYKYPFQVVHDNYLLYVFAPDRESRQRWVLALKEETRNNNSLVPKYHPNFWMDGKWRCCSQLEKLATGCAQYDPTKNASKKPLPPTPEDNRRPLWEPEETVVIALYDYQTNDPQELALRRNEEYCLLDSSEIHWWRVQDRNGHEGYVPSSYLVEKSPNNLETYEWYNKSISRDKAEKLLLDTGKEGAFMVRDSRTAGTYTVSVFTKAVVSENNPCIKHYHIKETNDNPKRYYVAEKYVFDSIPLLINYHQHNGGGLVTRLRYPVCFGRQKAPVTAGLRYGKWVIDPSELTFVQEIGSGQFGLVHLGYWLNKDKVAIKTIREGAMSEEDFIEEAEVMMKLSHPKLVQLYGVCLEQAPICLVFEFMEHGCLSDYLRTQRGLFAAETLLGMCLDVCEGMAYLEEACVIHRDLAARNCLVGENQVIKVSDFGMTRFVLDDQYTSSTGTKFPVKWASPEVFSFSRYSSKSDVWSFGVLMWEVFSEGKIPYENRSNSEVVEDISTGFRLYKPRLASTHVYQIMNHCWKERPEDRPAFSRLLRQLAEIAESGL

Block 1
Compound: CCOCCn1cc(C(=O)Nc2ccc(-n3nc(-c4cccnc4)cc3C(F)(F)F)cn2)ccc1=O
Read-out: cell-free assay
Method: competition with immobilised ligand
Concentration: 1 µM
| target | remaining binding [%] |
| --- | --- |
| MAPK15 (Homo sapiens, UniProt Q8TD08) | 100 |
| MAPK12 (Homo sapiens, UniProt P53778) | 65 |
| ITK (Homo sapiens, UniProt Q08881) | 83 |
| BTK (Homo sapiens, UniProt Q06187) | 79 |
| GRK4 (Homo sapiens, UniProt P32298) | 100 |
| MAPK14 (Homo sapiens, UniProt Q16539) | 100 |
| PAK3 (Homo sapiens, UniProt O75914) | 100 |
| ULK3 (Homo sapiens, UniProt Q6PHR2) | 61 |
| PIK3CA (Homo sapiens, UniProt P42336) | 92 |
| EGFR (Homo sapiens, UniProt P00533) | 100 |
| Ribosomal protein S6 kinase alpha-1, C-terminal kinase domain (RPS6KA1, Homo sapiens, UniProt Q15418) | 100 |
| CAMKK1 (Homo sapiens, UniProt Q8N5S9) | 100 |
| WNK2 (Homo sapiens, UniProt Q9Y3S1) | 64 |
| TSSK3 (Homo sapiens, UniProt Q96PN8) | 100 |
| MAST1 (Homo sapiens, UniProt Q9Y2H9) | 100 |
| PAK4 (Homo sapiens, UniProt O96013) | 100 |
| HUNK (Homo sapiens, UniProt P57058) | 93 |
| MINK1 (Homo sapiens, UniProt Q8N4C8) | 89 |
| CDK16 (Homo sapiens, UniProt Q00536) | 98 |

Block 2
SMILES: CC(C)n1cnc(-c2ccc(F)cc2)c1-c1ncc(C(=O)Nc2ccc(N3CCN(C)CC3)cc2)[nH]1
Method: phase 2a trial
Species: idiopathic pulmonary fibrosis patients
| conditions | patients with anaemia |
| --- | --- |
| 60 mg once daily, adverse event grade 1 | 0% |
| 60 mg once daily, adverse event grade 2 | 0% |
| 30 mg once daily, adverse event grade 4 | 0% |
| 30 mg once daily, adverse event grade 5 | 0% |
| dose not given, adverse event grade 2, all dose arms pooled | 0% |
| 60 mg once daily, adverse event grade 3 | 0% |

Block 3
Cell line: UACC-903 melanoma cells
| Compound | IC50 [µM] |
| --- | --- |
| CC(C)c1ccc2c(c1)CC[C@H]1[C@](C)(CN)CCC[C@]21C | 2.1 |
| OCCOCCN1CCN(C(c2ccccc2)c2ccc(Cl)cc2)CC1 (stereo not drawn) | 44.8 |
| Clc1ccccc1CNCC1CCC(CNCc2ccccc2Cl)CC1 (stereo not drawn) | 14.8 |

Block 4
Cell line: HaCaT
Concentration: 100 µM
Time: 36 h
| SMILES | viability |
| --- | --- |
| CCN(CC)C(=S)SSC(=S)N(CC)CC | 5.89% |
| Clc1cccc(Cl)c1N=C1NCCN1 | 78.1% |
| OC[C@H]1O[C@H](OC[C@H]2O[C@H](OC[C@H]3O[C@H](O[C@]4(CO)O[C@H](CO)[C@@H](O)[C@@H]4O)[C@H](O)[C@@H](O)[C@@H]3O)[C@H](O)[C@@H](O)[C@H]2O)[C@H](O)[C@@H](O)[C@H]1O | 58.6% |
| C[N+](C)(C)CCOC(N)=O | 89.5% |
| C=CC1=C(C(=O)O)N2C(=O)[C@@H](NC(=O)/C(=N\OCC(=O)O)c3csc(N)n3)[C@H]2SC1 | 97.4% |
| COc1cc(C(C)=O)ccc1OCCCN1CCC(c2noc3cc(F)ccc23)CC1 | 89.1% |

Block 5
Target: DNA polymerase theta, ATPase domain (POLQ, Homo sapiens, UniProt O75417)
Sequence of UniProt O75417 (whole entry, unmodified, looked up): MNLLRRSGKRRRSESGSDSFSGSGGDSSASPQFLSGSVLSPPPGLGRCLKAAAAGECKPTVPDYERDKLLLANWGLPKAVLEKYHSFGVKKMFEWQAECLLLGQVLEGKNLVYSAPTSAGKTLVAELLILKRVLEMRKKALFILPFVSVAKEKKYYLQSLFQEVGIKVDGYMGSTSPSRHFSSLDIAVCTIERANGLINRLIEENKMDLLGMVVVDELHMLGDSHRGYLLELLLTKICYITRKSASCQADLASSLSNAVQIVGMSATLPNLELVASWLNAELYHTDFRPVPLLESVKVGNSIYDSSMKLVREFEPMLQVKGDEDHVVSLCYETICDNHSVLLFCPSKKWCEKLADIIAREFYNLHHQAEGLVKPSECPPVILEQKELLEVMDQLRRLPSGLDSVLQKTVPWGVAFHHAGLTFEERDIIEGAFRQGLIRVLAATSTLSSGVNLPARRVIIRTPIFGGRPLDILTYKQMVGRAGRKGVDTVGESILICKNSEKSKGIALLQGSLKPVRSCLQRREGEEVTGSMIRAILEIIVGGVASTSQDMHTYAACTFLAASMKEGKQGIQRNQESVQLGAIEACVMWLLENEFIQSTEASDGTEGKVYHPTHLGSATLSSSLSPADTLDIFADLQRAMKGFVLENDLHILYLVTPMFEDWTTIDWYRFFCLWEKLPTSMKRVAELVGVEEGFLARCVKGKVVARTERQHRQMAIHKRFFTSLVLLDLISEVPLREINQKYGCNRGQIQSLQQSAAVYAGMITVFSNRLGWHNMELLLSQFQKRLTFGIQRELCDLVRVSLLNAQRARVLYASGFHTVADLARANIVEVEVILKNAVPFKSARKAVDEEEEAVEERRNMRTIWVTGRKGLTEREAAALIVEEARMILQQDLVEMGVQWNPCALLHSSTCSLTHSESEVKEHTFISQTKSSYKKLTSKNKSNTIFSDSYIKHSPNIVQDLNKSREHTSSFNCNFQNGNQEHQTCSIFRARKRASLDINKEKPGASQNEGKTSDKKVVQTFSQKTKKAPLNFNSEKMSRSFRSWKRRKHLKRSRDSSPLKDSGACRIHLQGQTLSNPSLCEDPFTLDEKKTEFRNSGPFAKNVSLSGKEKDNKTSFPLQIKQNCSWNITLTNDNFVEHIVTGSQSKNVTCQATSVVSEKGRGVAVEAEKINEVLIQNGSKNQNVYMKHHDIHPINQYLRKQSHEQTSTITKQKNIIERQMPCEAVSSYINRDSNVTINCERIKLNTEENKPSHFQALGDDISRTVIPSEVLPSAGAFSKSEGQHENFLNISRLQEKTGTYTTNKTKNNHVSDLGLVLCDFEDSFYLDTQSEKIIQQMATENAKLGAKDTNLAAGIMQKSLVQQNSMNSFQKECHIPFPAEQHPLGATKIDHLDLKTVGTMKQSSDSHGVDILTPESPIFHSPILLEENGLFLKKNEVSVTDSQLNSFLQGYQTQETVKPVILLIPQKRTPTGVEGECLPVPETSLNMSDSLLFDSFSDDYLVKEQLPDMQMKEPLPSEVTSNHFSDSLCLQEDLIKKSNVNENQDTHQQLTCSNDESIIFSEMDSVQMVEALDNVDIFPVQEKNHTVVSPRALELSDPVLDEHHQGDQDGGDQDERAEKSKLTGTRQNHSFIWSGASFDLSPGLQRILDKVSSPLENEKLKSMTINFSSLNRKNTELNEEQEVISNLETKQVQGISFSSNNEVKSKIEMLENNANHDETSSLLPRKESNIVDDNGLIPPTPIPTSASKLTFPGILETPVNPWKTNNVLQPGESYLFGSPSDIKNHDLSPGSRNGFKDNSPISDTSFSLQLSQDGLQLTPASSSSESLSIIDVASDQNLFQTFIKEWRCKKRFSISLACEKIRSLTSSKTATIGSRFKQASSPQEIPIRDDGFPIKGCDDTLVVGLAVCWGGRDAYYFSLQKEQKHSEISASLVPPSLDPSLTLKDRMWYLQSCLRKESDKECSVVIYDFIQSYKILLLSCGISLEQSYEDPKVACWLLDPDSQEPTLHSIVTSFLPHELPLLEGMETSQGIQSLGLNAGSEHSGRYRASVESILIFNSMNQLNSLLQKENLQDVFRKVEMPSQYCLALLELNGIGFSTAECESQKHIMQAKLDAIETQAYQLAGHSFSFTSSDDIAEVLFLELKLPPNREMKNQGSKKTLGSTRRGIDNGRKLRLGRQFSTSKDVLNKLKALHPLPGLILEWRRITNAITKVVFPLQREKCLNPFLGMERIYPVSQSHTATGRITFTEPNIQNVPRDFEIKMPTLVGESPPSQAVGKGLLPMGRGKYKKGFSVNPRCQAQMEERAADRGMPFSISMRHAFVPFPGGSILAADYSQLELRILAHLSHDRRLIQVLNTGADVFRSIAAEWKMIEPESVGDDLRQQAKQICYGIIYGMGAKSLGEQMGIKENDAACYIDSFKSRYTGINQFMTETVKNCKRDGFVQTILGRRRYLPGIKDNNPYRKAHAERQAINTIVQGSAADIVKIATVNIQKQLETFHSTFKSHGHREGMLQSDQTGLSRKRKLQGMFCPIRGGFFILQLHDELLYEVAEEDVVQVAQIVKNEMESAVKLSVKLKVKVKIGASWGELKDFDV
Read-out: enzyme activity
Mode: inhibitor
Concentration: 77 µM
Relative to: untreated
| Compound | remaining activity |
| --- | --- |
| C[C@]1(OC(=O)/C=C/c2ccccc2)C[C@@H](O)[C@]2(O)C=CO[C@@H](O[C@@H]3O[C@H](CO)[C@@H](O)[C@H](O)[C@H]3O)[C@@H]21 | 105% |
| O=C1[C@H](CC[C@H](O)c2ccc(F)cc2)[C@@H](c2ccc(O)cc2)N1c1ccc(F)cc1 | 91.9% |
| CN(C)Cc1cccc(N=C(c2ccccc2)c2c(O)[nH]c3cc(C(=O)N(C)C)ccc23)c1 | 99.1% |
| O=c1cc(-c2ccccc2)[nH]c2nc(Cl)ccc12 | 99.3% |
| CNC(=O)c1ccc2cc([C@@]3(O)CCn4cncc43)ccc2c1 | 86.9% |
| CN[C@@H]1[C@@H](O)[C@@H](O[C@@H]2[C@@H](O)[C@H](O[C@H]3OC(CN)=CC[C@H]3N)[C@@H](N)C[C@H]2N)OC[C@]1(C)O | 101% |
| Cc1cn([C@H]2C[C@H](N=[N+]=[N-])[C@@H](CO)O2)c(=O)[nH]c1=O | 106% and 103% and 85.4% |
| CCOC(=O)Nc1ccc2c(c1)N(C(=O)CCN1CCOCC1)c1ccccc1S2 | 96.3% |

Some of these lines once more (block 1):
| target | remaining binding [%] |
| --- | --- |
| WNK2 (Homo sapiens, UniProt Q9Y3S1) | 64 |
| TSSK3 (Homo sapiens, UniProt Q96PN8) | 100 |
| MAST1 (Homo sapiens, UniProt Q9Y2H9) | 100 |
| PAK4 (Homo sapiens, UniProt O96013) | 100 |
| HUNK (Homo sapiens, UniProt P57058) | 93 |
| MINK1 (Homo sapiens, UniProt Q8N4C8) | 89 |
